Measurements collected from several papers.
Lines come from different studies, so protocols differ. Values joined by “and” are separate records of one study, mostly repeats; a detail may differ. ± marks the error that the study gave.

| Structure (SMILES) | assay | system | setting | how to read | measurement | result |
| --- | --- | --- | --- | --- | --- | --- |
| C=CCn1c(=O)c2cnc(Nc3ccc(N4CCN(C)CC4)cc3)nc2n1-c1ccc2c(n1)[C@@](O)(CC)CC2 | – | HCC1428 xenograft, BALB/c nude mice | oral, 80 mg/kg once daily x 14, day 27 | reference: vehicle | tumour growth inhibition | 96.2% |
| N[C@@H](Cc1cc(I)c(O)c(I)c1)C(=O)O | binding, MIDAS equilibrium dialysis LC-MS | A2AR-BRIL thermostabilized | concentration not given | reference: no-protein control | log2 fold change | -0.0745 |
| O=C(O)CNC(=O)Cc1ccccc1 | – | ventricular cardiomyocytes, C57BL/6 mouse | dose not given, 0.5 s | – | sarcomere length | 1.64 µm |
| N#Cc1ccn2c(-c3ccncc3)c(-c3ccc(F)cc3)nc2c1 | kinase binding, competitor, MIB/MS competition, measured: CMK1 | Candida albicans cell lysate | 10 µM | reference: DMSO | log2 fold change | -0.0172 |
| O=c1cc[nH]c(=O)[nH]1 | binding, MIDAS equilibrium dialysis LC-MS | A2AR-BRIL thermostabilized | concentration not given | reference: no-protein control | log2 fold change | 0.0708 |
| Cn1cc(Nc2nccc(-c3ccc4c(c3)CN(C3COC3)CC[C@H]4NC(=O)c3cn(C(C)(C)C)nn3)n2)cn1 | measured: folate polyglutamylation | splenic B cells, mice | 30 mg/kg, IgD-activated in vivo | reference: vehicle, direction not given | pathway activation z-score | -2.24 |
| C[C@@H]1O[C@H](OP(=O)(O)O)[C@@H](O)[C@H](O)[C@@H]1O | binding, MIDAS equilibrium dialysis LC-MS | A2AR-BRIL thermostabilized | concentration not given | reference: no-protein control | log2 fold change | 0.00452 |
| Cc1cc([C@H]2C[C@H]3[C@@H](CF)SC(N)=N[C@@]3(c3ccc(F)cc3F)CO2)on1 | measured: Aβx-40 | Mus musculus wild-type, cerebrospinal fluid | subcutaneous, 30 mg/kg, 1 h | – | Aβ40 level | 0.79 ng/mL |
| C/C(=N\c1nc(N)nc(/N=C(\C)c2c(O)c3ccccc3oc2=O)n1)c1c(O)c2ccccc2oc1=O | – | – | 1 mg/mL, 60 min | – | DPPH radical scavenging | 94.1% |
| CC(=O)Oc1cc2c(s1)CCN(C(C(=O)C1CC1)c1ccccc1F)C2 (stereo not shown) | platelet aggregation, light transmittance aggregometry | human, platelet-rich plasma | 4 to 6 h, IPA above 90 %, together with: ADP 20 µM | reference: patients | patients with IPA above threshold | 4.8% |
| O=P(O)(O)OC[C@H](O)CO | binding, MIDAS equilibrium dialysis LC-MS | A2AR-BRIL thermostabilized | concentration not given | reference: no-protein control | log2 fold change | -0.0422 |
| COc1ccc2c(c1)c(CC(=O)O)c(C)n2C(=O)c1ccc(Cl)cc1 | DPPH | methanol | concentration not given, 30 min | – | DPPH radical scavenging | 20.3 ± 0.73% |
| CC(C)(C)c1sc2ncnc(Oc3c(F)cccc3OC(F)(F)F)c2c1-c1ccc(Cl)cc1 | paw withdrawal latency | MrgprX1 mice, CCI model | oral, 100 mg/kg, 2 h, day 14 post-CCI, heat hyperalgesia | – | antihyperalgesia | > 100% |
| COc1ccc(-c2cncc(N[C@@H](C)c3cccc(NC(=O)c4cncc(C)c4)c3)n2)cc1OC | measured: rno-miR-323-3p | rat SU5416/hypoxia model, lung | dose not given, unit not given | reference: SU5416/hypoxia vehicle | delta delta Ct | -0.37 |
| Cn1cc([C@H]2C[C@H]3CSC(N)=N[C@@]3(c3ccc(F)cc3F)CO2)cn1 | measured: Aβx-40 | Mus musculus wild-type, cerebrospinal fluid | subcutaneous, 3 mg/kg, 9 h | – | Aβ40 level | 1.27 ng/mL |
| O=P(O)(O)C(Cl)(Cl)P(=O)(O)O | endothelial activation, immunostaining | mouse, sham, cortical capillaries | dose not given | – | VCAM-1 level | 5.67 MFI and 4.71 MFI and 8.21 MFI and 7.97 MFI |
| OC(CCN1CCCCC1)(c1ccccc1)C1CC2C=CC1C2 (stereo not shown) | resting-state EEG | healthy elderly humans | oral, 4 mg, eyes closed, LS mean | – | EEG power, beta, Pz-O1 | 7.3 µV² |
| CC1=CC(=O)CC(C)(C)[C@@]1(O)/C=C/C(C)=C\C(=O)O | RNA-seq, measured: AT1G04220 | Arabidopsis thaliana Col seedlings | dose not given | reference: DMSO | log2 fold change | 4.3 |
| O=C(COc1ccc(Cl)cc1)NC12CC(c3nnc([C@H]4C[C@@H](OC(F)(F)F)C4)o3)(C1)C2 | – | healthy human, PBMC | oral, 15 mg single dose, day 2, 24 h post-dose, median, together with: sodium arsenite ex vivo | reference: baseline | ATF4 protein change | -4.56% |
| CN(C)C(=O)c1cc2cnc(Nc3ccc(N4CCNCC4)cn3)nc2n1C1CCCC1 | RNA-seq GSEA, measured: HALLMARK_HYPOXIA | MB002 tumour | concentration not given, in vivo | reference: vehicle, direction not given | normalized enrichment score | 1.22 |

| Structure (SMILES) | assay | system | setting | how to read | measurement | result |
| --- | --- | --- | --- | --- | --- | --- |
| NCC(=O)Nc1cncc(-c2nn3c(=O)cc(N4CCNCC4)nc3s2)c1 | ADP-induced platelet aggregation, light transmission aggregometry | human stable CAD patients on aspirin, platelets ex vivo | 0.075 mg/kg, 90 min post dose, together with: 20 µM ADP | reference: placebo difference | inhibition of platelet aggregation | 28.1% |
| CC(O)(CC(=O)O)CC(=O)SCCNC(=O)CCNC(=O)[C@H](O)C(C)(C)COP(=O)(O)OP(=O)(O)OC[C@H]1O[C@@H](n2cnc3c(N)ncnc32)[C@H](O)[C@@H]1OP(=O)(O)O (stereo partly shown) | binding, MIDAS equilibrium dialysis LC-MS | A2AR-BRIL thermostabilized | concentration not given | reference: no-protein control | log2 fold change | -0.338 |
| O=C(OC(C(F)(F)F)C(F)(F)F)N1CCN(Cc2cccc(Oc3ccccc3)c2)CC1 | PET blocking study | rhesus monkey, brain HIP | 0.03 mg/kg, compound pretreatment, together with: [18F]T-401 tracer | – | k4 | 0.134 min⁻¹ |
| CCCCCN1C[C@H](O)[C@@H](O)[C@H](O)[C@@H]1CO | RNA sequencing, measured: 327 disease-specific DEGs | Hexb-/- mouse, hippocampus | 300 mg/kg/day | direction not given | genomic disease score | 0.52 |
| C[C@H]1C[C@H]2CSC(N)=N[C@@]2(c2nc(NC(=O)c3ccc(OC(F)F)cn3)cs2)CO1 | measured: Aβ1-40 | healthy adults, plasma | 200 mg single dose, 48 h post-dose | reference: placebo | percent change from baseline | -90.2% |
| Cc1cc([C@H]2C[C@H]3[C@@H](C)SC(N)=N[C@@]3(c3ccc(F)cc3F)CO2)on1 | measured: Aβx-40 | wild-type mouse, brain | subcutaneous, 50 mg/kg, 5 h | – | brain Aβ40 level | 1.01 ng/g |
| O=C1CCc2ccc(OCCCCN3CCN(c4cccc(Cl)c4Cl)CC3)cc2N1 | treatment discontinuation, Cox regression | human patients, CYP2D6 IM/PM/UM | dose not given, 3 months, genetic phenotype only | reference: CYP2D6 normal metabolizers | hazard ratio | 2.08 |
| CO[C@H]1CC[C@H](N2C(=O)CNc3ncc(-c4ccc(C(C)(C)O)nc4)nc32)CC1 | flow cytometry | stimulated monocytes, human, blood | 45 mg single dose, 5 h, median | reference: baseline | pAKT change from baseline | -59.1% |
| CN[C@@H]1COc2c(S(=O)(=O)NC(=O)Nc3c4c(cc5c3CCC5)CCC4)cnn2C1 | measured: IL-18 | human participants, whole blood ex vivo | 150 mg single dose, 72 h, IL-18, circulating, adjusted for, together with: LPS/ATP | reference: baseline | inhibition | -4.2% |
| CC(C)[C@H](N)C(=O)O | binding, MIDAS equilibrium dialysis LC-MS | A2AR-BRIL thermostabilized | concentration not given | reference: no-protein control | log2 fold change | 0.0325 |
| c1ccc(-c2n[nH]cc2-c2ccnc3ccccc23)nc1 | kinase binding, competitor, MIB/MS competition, measured: RIM11 | Candida albicans cell lysate | 10 µM | reference: DMSO | log2 fold change | 1.27 |
| COc1cc(Nc2ncc3c(n2)-c2ccc(Cl)cc2C(c2c(F)cccc2OC)=NC3)ccc1C(=O)O | – | mouse, NB-1771 neuroblastoma xenograft | 2.6 mg/kg | direction not given | median response score | 2 |
| Cc1cc(C)c(CNC(=O)c2cc(Cl)c3c(c2C)O[C@@](C)([C@H]2CC[C@H](N(C)C)CC2)O3)c(=O)[nH]1 | IWG 2007 criteria | human, relapsed/refractory peripheral T-cell lymphoma | dose not given | – | best overall response PD | 27% |
| CC(CCc1ccc(O)cc1)NCCc1ccc(O)c(O)c1 (stereo not shown) | – | anaesthetised instrumented rat | iv infusion, 1 µg/kg/min, 15 min, unit not given | reference: baseline | stroke volume change | 2.9 ± 2.2 |
| CC(C)c1c(C(=O)Nc2ccccc2)c(-c2ccccc2)c(-c2ccc(F)cc2)n1CC[C@@H](O)C[C@@H](O)CC(=O)O | – | cynomolgus monkey, female, serum | 40 mg/kg or 25 mg/kg, day 86, 2064 h | – | HDL-C | 38.4 mg/dL |
| COc1ncc(-c2nc3c(n2C(C)C)[C@H](c2ccc(Cl)cc2)N(c2cc(Cl)cn(C)c2=O)C3=O)c(OC)n1 | International Working Group criteria | human acute myeloid leukemia patients | oral, 120 mg, response CR, high-dose, recommended dose for expansion | – | best overall response | 4.2% |
| N#Cc1ccc2c(-c3ccncc3)c(-c3ccc(F)cc3)nn2c1 | kinase binding, competitor, MIB/MS competition, measured: MCK1 | Candida albicans cell lysate | 1 µM | reference: DMSO | log2 fold change | -0.161 |
| CC(C)[C@H](NC(=O)[C@H](Cc1ccc(O)cc1)NC(=O)[C@H](Cc1ccc(O)cc1)NC(=O)[C@@H]1CCCN1C(=O)[C@H](CCC(=O)O)NC(=O)[C@H](CCC(=O)O)NC(=O)[C@H](Cc1c[nH]c2ccccc12)NC(=O)[C@@H]1CCCN1C(=O)[C@@H](NC(=O)[C@H](CCC(N)=O)NC(=O)c1ccc2c(c1)C(=O)OC21c2ccc(O)cc2Oc2cc(O)ccc21)C(C)C)C(=O)N[C@H](C(=O)N[C@@H](CCCCN)C(=O)N[C@@H](CCCCN)C(=O)N[C@@H](CO)C(=O)N[C@@H](CO)C(=O)NCC(=O)NCC(N)=O)C(C)C | nerve penetration depth | human head and neck surgery, nerves | 500 mg, much improved | reference: white light | share of responses | 0% |
| Cc1coc([C@H]2C[C@H]3[C@@H](CF)SC(N)=N[C@@]3(c3ccc(F)cc3F)CO2)n1 | measured: Aβx-40 | wild-type mouse, brain | subcutaneous, 80 mg/kg, 5 h | – | brain Aβ40 level | 1 ng/g |
| C[C@@H]1C[C@H]2[C@@H]3CCC4=CC(=O)C=C[C@]4(C)[C@@]3(F)[C@@H](O)C[C@]2(C)[C@@]1(O)C(=O)CO | – | mouse, oxazolone dermatitis, plasma | topical, 20 mg/ear, once daily, unit not given | reference: vehicle | IL6 level difference | 92.6 |
